Experimental data collected from several papers.
Each numbered part is a random draw from the data of one study; scales do not carry over between parts.
Chain of UniProt P07948 (whole entry, looked up): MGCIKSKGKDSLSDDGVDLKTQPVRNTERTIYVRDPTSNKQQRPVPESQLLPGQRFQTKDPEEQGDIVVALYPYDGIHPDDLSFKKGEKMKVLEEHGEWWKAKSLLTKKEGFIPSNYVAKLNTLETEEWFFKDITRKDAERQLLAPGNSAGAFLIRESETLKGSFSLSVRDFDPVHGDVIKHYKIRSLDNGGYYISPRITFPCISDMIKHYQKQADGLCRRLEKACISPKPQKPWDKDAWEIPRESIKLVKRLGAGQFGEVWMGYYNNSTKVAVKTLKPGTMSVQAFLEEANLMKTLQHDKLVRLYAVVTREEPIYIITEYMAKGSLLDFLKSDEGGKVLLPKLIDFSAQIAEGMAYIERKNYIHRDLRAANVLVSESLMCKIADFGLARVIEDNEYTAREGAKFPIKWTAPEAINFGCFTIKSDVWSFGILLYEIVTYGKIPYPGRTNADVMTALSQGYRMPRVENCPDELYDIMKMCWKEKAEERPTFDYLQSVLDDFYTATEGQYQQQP
Chain of UniProt Q16659 (whole entry, looked up): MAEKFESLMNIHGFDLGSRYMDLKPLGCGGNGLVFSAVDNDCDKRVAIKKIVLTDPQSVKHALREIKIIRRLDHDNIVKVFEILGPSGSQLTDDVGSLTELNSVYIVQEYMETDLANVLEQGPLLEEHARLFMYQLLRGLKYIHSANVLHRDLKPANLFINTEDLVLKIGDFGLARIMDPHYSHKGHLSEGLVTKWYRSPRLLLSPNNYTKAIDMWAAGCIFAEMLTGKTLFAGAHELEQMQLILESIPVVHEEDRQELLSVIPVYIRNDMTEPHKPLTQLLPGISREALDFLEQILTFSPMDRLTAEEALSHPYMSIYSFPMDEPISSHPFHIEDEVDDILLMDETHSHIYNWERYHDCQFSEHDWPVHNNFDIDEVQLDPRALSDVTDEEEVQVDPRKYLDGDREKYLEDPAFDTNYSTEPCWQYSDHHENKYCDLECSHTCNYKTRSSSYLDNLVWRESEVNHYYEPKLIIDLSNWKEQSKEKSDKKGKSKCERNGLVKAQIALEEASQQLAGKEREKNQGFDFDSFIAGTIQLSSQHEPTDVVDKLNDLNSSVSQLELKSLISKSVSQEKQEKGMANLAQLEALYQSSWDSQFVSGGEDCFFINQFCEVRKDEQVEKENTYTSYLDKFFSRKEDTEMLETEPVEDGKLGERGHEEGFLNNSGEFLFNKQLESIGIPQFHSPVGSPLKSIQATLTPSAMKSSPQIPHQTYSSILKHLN
Chain of UniProt P50750 (whole entry, looked up): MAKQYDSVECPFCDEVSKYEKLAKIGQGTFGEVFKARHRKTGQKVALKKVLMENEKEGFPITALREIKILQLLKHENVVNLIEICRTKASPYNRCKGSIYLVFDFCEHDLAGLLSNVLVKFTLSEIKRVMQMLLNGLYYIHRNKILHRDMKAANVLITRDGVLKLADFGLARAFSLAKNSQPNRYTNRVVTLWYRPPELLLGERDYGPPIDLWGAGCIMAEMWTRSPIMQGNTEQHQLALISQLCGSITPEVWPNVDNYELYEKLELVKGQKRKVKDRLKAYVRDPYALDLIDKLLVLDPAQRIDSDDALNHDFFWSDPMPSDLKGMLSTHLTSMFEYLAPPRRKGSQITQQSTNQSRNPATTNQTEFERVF
Chain of UniProt Q8TDX7 (whole entry, looked up): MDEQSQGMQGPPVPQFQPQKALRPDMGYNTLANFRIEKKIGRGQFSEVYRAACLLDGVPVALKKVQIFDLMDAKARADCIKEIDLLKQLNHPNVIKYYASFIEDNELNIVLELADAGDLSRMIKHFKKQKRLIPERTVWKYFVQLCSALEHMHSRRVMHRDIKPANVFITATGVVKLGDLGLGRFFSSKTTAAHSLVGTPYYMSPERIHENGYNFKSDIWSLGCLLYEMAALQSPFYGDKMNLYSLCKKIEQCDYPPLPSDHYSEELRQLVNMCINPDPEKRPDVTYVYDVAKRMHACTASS
Chain of UniProt P51813 (whole entry, looked up): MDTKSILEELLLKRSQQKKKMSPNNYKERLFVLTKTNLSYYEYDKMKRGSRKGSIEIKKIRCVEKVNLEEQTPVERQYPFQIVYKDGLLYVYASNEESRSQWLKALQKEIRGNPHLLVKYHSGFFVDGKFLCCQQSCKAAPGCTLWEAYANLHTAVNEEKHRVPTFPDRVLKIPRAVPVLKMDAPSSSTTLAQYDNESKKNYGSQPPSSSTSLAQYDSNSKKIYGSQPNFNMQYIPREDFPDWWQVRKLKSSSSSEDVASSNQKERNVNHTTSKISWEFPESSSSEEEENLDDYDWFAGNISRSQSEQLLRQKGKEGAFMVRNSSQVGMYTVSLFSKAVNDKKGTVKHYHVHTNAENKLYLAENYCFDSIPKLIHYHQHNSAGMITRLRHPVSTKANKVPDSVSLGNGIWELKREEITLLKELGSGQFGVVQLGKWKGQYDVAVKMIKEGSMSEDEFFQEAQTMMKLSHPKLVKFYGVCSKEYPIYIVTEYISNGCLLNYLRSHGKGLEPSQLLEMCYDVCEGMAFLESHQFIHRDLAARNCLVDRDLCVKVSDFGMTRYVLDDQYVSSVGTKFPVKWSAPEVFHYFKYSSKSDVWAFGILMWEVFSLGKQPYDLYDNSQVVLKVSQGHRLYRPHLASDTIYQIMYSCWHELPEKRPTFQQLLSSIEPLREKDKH
Chain of UniProt Q13470 (whole entry, looked up): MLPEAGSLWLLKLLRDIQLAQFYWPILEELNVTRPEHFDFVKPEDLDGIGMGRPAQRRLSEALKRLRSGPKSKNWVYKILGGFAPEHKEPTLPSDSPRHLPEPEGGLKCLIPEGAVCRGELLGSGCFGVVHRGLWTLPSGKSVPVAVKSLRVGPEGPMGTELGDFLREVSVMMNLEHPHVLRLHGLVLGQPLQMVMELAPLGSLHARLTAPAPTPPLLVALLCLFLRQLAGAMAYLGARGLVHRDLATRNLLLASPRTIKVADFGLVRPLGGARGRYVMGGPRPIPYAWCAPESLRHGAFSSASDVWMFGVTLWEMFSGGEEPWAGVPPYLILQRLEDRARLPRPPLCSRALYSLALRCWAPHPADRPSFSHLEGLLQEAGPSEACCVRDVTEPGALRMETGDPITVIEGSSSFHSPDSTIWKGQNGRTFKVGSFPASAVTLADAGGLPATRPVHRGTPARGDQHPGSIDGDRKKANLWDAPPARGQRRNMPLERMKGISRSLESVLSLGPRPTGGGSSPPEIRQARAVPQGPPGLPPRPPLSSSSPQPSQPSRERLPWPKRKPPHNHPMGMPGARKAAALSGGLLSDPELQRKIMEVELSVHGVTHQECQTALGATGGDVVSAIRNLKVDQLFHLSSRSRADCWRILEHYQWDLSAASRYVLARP
Chain of UniProt P37173 (whole entry, looked up): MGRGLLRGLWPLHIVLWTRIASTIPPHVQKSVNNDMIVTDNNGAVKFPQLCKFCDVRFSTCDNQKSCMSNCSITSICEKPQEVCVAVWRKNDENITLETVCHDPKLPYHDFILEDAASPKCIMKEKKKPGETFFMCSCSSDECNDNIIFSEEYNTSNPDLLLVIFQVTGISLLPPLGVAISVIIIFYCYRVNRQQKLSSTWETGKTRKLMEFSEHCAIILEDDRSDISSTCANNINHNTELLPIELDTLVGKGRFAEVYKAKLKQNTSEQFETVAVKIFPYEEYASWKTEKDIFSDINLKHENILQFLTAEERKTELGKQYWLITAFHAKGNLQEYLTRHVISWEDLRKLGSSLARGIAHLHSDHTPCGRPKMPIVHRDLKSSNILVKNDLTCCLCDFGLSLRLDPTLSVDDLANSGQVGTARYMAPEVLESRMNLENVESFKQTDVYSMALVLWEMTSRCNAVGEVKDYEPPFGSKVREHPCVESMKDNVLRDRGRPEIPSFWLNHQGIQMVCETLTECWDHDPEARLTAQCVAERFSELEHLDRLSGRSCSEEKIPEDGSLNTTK

Study 1 — read-out: enzyme activity; mode: inhibitor; tested at: 0.5 µM; baseline: control
Target: STE20/SPS1-related proline-alanine-rich protein kinase (STK39, Homo sapiens, UniProt Q9UEW8)
| SMILES | remaining activity |
| --- | --- |
| Cc1nc(-c2ccccc2)c(-c2ccncc2)o1 | 97.1% |
| Cc1ccc(Nc2nccc(N(C)c3ccc4c(C)n(C)nc4c3)n2)cc1S(N)(=O)=O | 95.9% |
| CO[C@H]1C[C@@H]2CC[C@@H](C)[C@@](O)(O2)C(=O)C(=O)N2CCCC[C@H]2C(=O)O[C@H]([C@H](C)C[C@@H]2CC[C@@H](O)[C@H](OC)C2)CC(=O)[C@H](C)/C=C(\C)[C@@H](O)[C@@H](OC)C(=O)[C@H](C)C[C@H](C)/C=C/C=C/C=C/1C | 97.9% |
| CNC(=O)c1cc(Oc2ccc(NC(=O)Nc3ccc(Cl)c(C(F)(F)F)c3)cc2)ccn1 | 95.7% |
| C#Cc1cccc(Nc2ncnc3cc(OCCOC)c(OCCOC)cc23)c1 | 97% |
| O=S(=O)(c1cccc2cnccc12)N1CCCNCC1 | 103% |
| O=C(O)c1ccc2c3c1cccc3c(=O)n1c3ccccc3nc21 | 102% |
| O=C1NC(=O)C(c2cn(CCCn3ccnc3)c3ccccc23)=C1Nc1ccccc1 | 99.2% |
| OCC(O)CCON=C1C(c2c(O)[nH]c3ccccc23)=Nc2ccccc21 (stereo not shown) | 79.3% |
| O=C1NC(=O)C(c2cn(CCCO)c3ncccc23)=C1c1cnccn1 | 111% |
| N#CC(C#N)=C(N)/C(C#N)=C/c1ccc(O)cc1 | 90.3% |
| Oc1ccc(-c2nc(-c3ccncc3)c(-c3ccc(F)cc3)[nH]2)cc1 | 94.8% |
| O=C(CCCc1ccc(-c2ccccc2F)cc1)Nc1ccc(O)cc1 | 95.4% |
| O=c1c2ccccc2[nH]c(=S)n1CCN1CCC(=C(c2ccc(F)cc2)c2ccc(F)cc2)CC1 | 96.8% |
| Nc1ccc2ncnc(NCCc3ccc(Oc4ccccc4)cc3)c2c1 | 83.9% |

Study 2 — cell line: Huh-7; tested at: 10 µM; time: 24 h
| Structure (SMILES) | viability |
| --- | --- |
| CCCCC(=O)O[C@]1(C(=O)CO)[C@@H](C)C[C@H]2[C@@H]3CCC4=CC(=O)C=C[C@]4(C)[C@@]3(F)[C@@H](O)C[C@@]21C | 103% |
| [H]/N=C(\N/C(=N/[H])NCCCCCCNC(=N)NC(=N)Nc1ccc(Cl)cc1)Nc1ccc(Cl)cc1 | 72.4% |
| Cc1nc2ccccn2c(=O)c1CCN1CCC(C(=O)c2ccc(F)cc2)CC1 | 96.3% |
| Cc1cc(=O)n(-c2ccccc2)n1C | 95.3% |

Study 3 — read-out: cell-free assay; method: competition with immobilised ligand; tested at: 1 µM
Compound: COc1ccc2c(c1)O[C@H](c1ccc(OC)c(OC)c1)C[C@@H]2NC(=O)C1(c2ccc3c(c2)OC(F)(F)O3)CC1
| target | remaining binding [%] |
| --- | --- |
| Non-receptor tyrosine-protein kinase TNK1 (TNK1, Homo sapiens, UniProt Q13470) | 97 |
| Dual specificity protein kinase CLK1 (CLK1, Homo sapiens, UniProt P49759) | 100 |
| TGF-beta receptor type-2 (TGFBR2, Homo sapiens, UniProt P37173) | 100 |
| Cyclin-G-associated kinase (GAK, Homo sapiens, UniProt O14976) | 100 |
| Ephrin type-A receptor 2 (EPHA2, Homo sapiens, UniProt P29317) | 94 |
| Dual specificity tyrosine-phosphorylation-regulated kinase 1A (DYRK1A, Homo sapiens, UniProt Q13627) | 100 |
| Leucine-rich repeat serine/threonine-protein kinase 2 (LRRK2, Homo sapiens, UniProt Q5S007) | 100 |
| Receptor-type tyrosine-protein kinase FLT3, autoinhibited (FLT3, Homo sapiens, UniProt P36888) | 83 |
| Receptor-type tyrosine-protein kinase FLT3 (FLT3, Homo sapiens, UniProt P36888, F691L/ITD) | 87 |
| Tyrosine-protein kinase receptor UFO (AXL, Homo sapiens, UniProt P30530) | 100 |
| Proto-oncogene tyrosine-protein kinase Src (SRC, Homo sapiens, UniProt P12931) | 100 |
| Serine/threonine-protein kinase 4 (STK4, Homo sapiens, UniProt Q13043) | 95 |
| Cytoplasmic tyrosine-protein kinase BMX (BMX, Homo sapiens, UniProt P51813) | 100 |
| Serine/threonine-protein kinase Nek7 (NEK7, Homo sapiens, UniProt Q8TDX7) | 100 |
| Cyclin-dependent kinase 9 (CDK9, Homo sapiens, UniProt P50750) | 78 |
| Mitogen-activated protein kinase 6 (MAPK6, Homo sapiens, UniProt Q16659) | 100 |
| Tyrosine-protein kinase Lyn (LYN, Homo sapiens, UniProt P07948) | 88 |
| Serine/threonine-protein kinase ULK1 (ULK1, Homo sapiens, UniProt O75385) | 88 |
| Calcium/calmodulin-dependent protein kinase type 1B (PNCK, Homo sapiens, UniProt Q6P2M8) | 100 |
| Ribosomal protein S6 kinase alpha-4, N-terminal kinase domain (RPS6KA4, Homo sapiens, UniProt O75676) | 100 |
| Serine/threonine-protein kinase DCLK1 (DCLK1, Homo sapiens, UniProt O15075) | 100 |
| Phosphatidylinositol 4,5-bisphosphate 3-kinase catalytic subunit alpha isoform (PIK3CA, Homo sapiens, UniProt P42336, C420R) | 91 |

Study 4 — species: human; sample: microsomes or S9; tested at: 2 µM; time: 0.5 h
| SMILES | remaining compound |
| --- | --- |
| CNc1ccc(Nc2ccc(Cl)c(C#N)n2)cn1 | 0.0207% |
| CCOc1ccc(CCNCc2c(C(=O)O)c(C)n(-c3ccccc3)c2C)cc1OCC | 76.3% |
| CC(=O)c1ccc(NC(=O)Cn2cnc3c(nnn3-c3ccc(C)cc3)c2=O)cc1 | 95.9% |
| C1=Cn2nc(/C=C/c3c[nH]c4ccccc34)nc2-c2ccccc2O1 | 46.5% |
| O=C(NCc1ccncc1)c1cc(-c2ccc(Br)s2)n[nH]1 | 96.3% |

Excerpt of the above (study 1):
| SMILES | remaining activity |
| --- | --- |
| Oc1ccc(-c2nc(-c3ccncc3)c(-c3ccc(F)cc3)[nH]2)cc1 | 94.8% |
| N#CC(C#N)=C(N)/C(C#N)=C/c1ccc(O)cc1 | 90.3% |
| CNC(=O)c1cc(Oc2ccc(NC(=O)Nc3ccc(Cl)c(C(F)(F)F)c3)cc2)ccn1 | 95.7% |
| Cc1ccc(Nc2nccc(N(C)c3ccc4c(C)n(C)nc4c3)n2)cc1S(N)(=O)=O | 95.9% |
| O=C(O)c1ccc2c3c1cccc3c(=O)n1c3ccccc3nc21 | 102% |
